Measured values of several laboratories.
Lines come from different studies, so protocols differ. “And” joins repeats or separate records; there may be more than shown. ± gives the spread as reported.

| Compound | assay | test system | conditions | scale | quantity | value |
| --- | --- | --- | --- | --- | --- | --- |
| CCOC(=O)NN | hydrazine ligation kinetics, absorbance | – | concentration not given, 10 s, added: 2-formylphenylboronic acid | – | normalised absorbance | 0.414 |
| COc1cc(O)ccc1CCC(c1ccc(O)cc1)c1cc2c(c(C)c1O)OC(c1ccc(O)cc1)CC2 (mixture of isomers) | measured: 12-HEPE | human whole blood | 3 µM, added: Escherichia coli | – | amount | 2810 ± 1290 pg/mL blood |
| CCCCCCCCCCCCCCCC(=O)OCC(CSC[C@H](N)C(=O)N[C@@H](CO)C(=O)N[C@@H](CCCCN)C(=O)N[C@@H](CCCCN)C(=O)N[C@@H](CCCCN)C(=O)N[C@@H](CCCCN)C(=O)NCCCCCC(=O)N[C@@H](CCCCN)C(=O)N[C@@H](CC(C)C)C(=O)N[C@H](C(=O)N[C@@H](Cc1ccccc1)C(=O)N[C@@H](Cc1ccccc1)C(=O)N[C@@H](Cc1ccc2ccccc2c1)C(=O)O)C(C)C)OC(=O)CCCCCCCCCCCCCCC (stereo partly drawn) | thioflavin S staining | APP/PS1 transgenic mouse, cortex | intracortical injection, dose not given, 5 d | – | Aβ plaque density | 89.4 /mm2 and 80.8 /mm2 and 88 /mm2 and 84.8 /mm2 |
| CCOC(=O)NCc1ccc(O[C@@H]2O[C@@H](C)[C@H](O)[C@@H](O)[C@H]2O)cc1 | ABTS radical | – | 300 µg/mL | – | radical scavenging | 30.6 ± 0.91% |
| Cc1ccc(C)c(OCC(O)CN2CCN(c3cc(Cl)ccc3C)CC2)c1 (stereo not drawn) | locomotor activity in dark | Danio rerio larvae, 7 dpf, well of 10 larvae | 10 µM, minute 3, dark | – | third-quartile larval motion | 0 pixels/frame |
| CC(C)OC(=O)[C@H](CO)NCc1cc(Cl)c(OCc2cccc(-c3ccccc3)c2Br)cc1OCc1cccnc1 | – | hPD-L1 MC-38 tumour, humanised hPD-1 C57BL/6 mouse | oral, 10 mg/kg × 21 | – | tumour weight | 1.27 ± 0.79 g |
| CC[C@H](C)[C@@H](C(=O)N[C@@H](CC(C)C)C(=O)N[C@@H](CO)C(=O)N[C@@H](CO)C(=O)N[C@H](C(=O)N[C@@H](CCC(=O)O)C(=O)N[C@H](C(=O)NCC(=O)N[C@@H](CO)C(=O)N[C@@H](CO)C(=O)N[C@H](C(=O)N1C[C@H](O)C[C@H]1C(N)=O)[C@@H](C)O)C(C)C)[C@@H](C)O)N(C)C(=O)[C@H](C)NC(=O)CN(C)C(=O)[C@H](Cc1ccccc1)NC(=O)[C@H](CO)NC(=O)[C@H](CO)NC(=O)[C@H](CCCNC(=N)N)NC(=O)[C@H](CCC(N)=O)NC(=O)[C@H](CC(C)C)NC(=O)[C@H](Cc1ccccc1)NC(=O)[C@H](Cc1c[nH]cn1)NC(=O)[C@H](C)NC(=O)[C@H](CC(C)C)NC(=O)[C@H](CCCNC(=N)N)NC(=O)[C@H](CCC(=O)O)NC(=O)[C@@H](NC(=O)[C@H](C)NC(=O)[C@@H]1CSSC[C@H](NC(=O)[C@H](CCCNC(=N)N)NC(=O)CC[C@H](NC(=O)CCCCCCCCCCCCCCCCCCC(=O)O)C(=O)O)C(=O)NCC(=O)N[C@@H]([C@@H](C)O)C(=O)N[C@@H](C)C(=O)N[C@@H]([C@@H](C)O)C(=O)N1)[C@@H](C)O | – | male Sprague-Dawley rats | subcutaneous, 30 nmol/kg single dose, 96 h | – | body weight loss | 6.3 ± 0.2% |
| N#Cc1ccc(-c2cnc(C(=O)CCCCCCc3ccccc3)o2)nc1 | measured: AEA, OEA, PEA | mouse, brain and liver | i.p., 30 mg/kg, 1 and 3 h | – | lipid amide levels | increased |
| CCOC(=O)C1CCN(CCC(=O)Nc2ccccc2F)CC1 | locomotor activity in dark | Danio rerio larvae, 7 dpf, well of 10 larvae | 10 µM, minute 1, dark | – | third-quartile larval motion | 0 pixels/frame |
| CC(C)C[C@H](NC(=O)CNC(=O)[C@H](CCC(N)=O)NC(=O)[C@H](CC(C)C)NC(=O)[C@H](CC(C)C)NC(=O)[C@H](CCCNC(=N)N)NC(=O)[C@H](CCC(N)=O)NC(=O)[C@H](CC(C)C)NC(=O)[C@H](CCCNC(=N)N)NC(=O)[C@H](C)NC(=O)CNC(=O)[C@H](CCC(=O)O)NC(=O)[C@H](CCCNC(=N)N)NC(=O)[C@H](CC(C)C)NC(=O)[C@H](CCCNC(=N)N)NC(=O)[C@H](CO)NC(=O)[C@H](CC(C)C)NC(=O)[C@H](CCC(=O)O)NC(=O)[C@H](CO)NC(=O)[C@@H](NC(=O)[C@H](Cc1ccccc1)NC(=O)[C@@H](NC(=O)CNC(=O)[C@H](CC(=O)O)NC(=O)C(C)(C)NC(=O)[C@@H](N)Cc1c[nH]cn1)[C@@H](C)O)[C@@H](C)O)C(=O)N[C@@H](CC(C)C)C(=O)N[C@@H](CCC(N)=O)C(=O)NCC(=O)N[C@@H](CC(C)C)C(=O)N[C@H](C(=O)NCC(=O)N[C@@H](CCCCNC(=O)COCCOCCNC(=O)COCCOCCNC(=O)CC[C@H](NC(=O)CCCCCCCCCCCCCCCCC(=O)O)C(=O)O)C(N)=O)C(C)C | – | NMRI mouse lean, plasma | subcutaneous, up to 300 nmol/kg, 2 h | – | glucagon level | increased |
| O=C(NCC1OC2CCC=CCCC2O1)c1ccc(F)nc1 (stereo not drawn) | IEDDA cycloaddition, substrate, stopped-flow spectrophotometry | water/methanol 45:55 | 0.25 mM, 298 K, added: methyltetrazine-NHS 0.05 mM | – | observed rate constant kobs | 2.57 ± 0.00526 s⁻¹ |
| COC1CN([C@H]2CC[C@H]([C@@]3(C)Oc4c(Cl)cc(C(=O)NCc5c(SC)cc(C)[nH]c5=O)c(C)c4O3)CC2)C1 | RNA-seq, measured: SLC9A3R2 mouse homolog | mouse, HT-1376 xenograft, whole blood | dose not given | relative to: vehicle | log2 fold change | 0.407 |
| CN1CCCNC(=O)c2cccc(c2)C(=O)NCCCN(C)CCCNc2cccc3c2C(=O)c2cccc(c2C3=O)NCCC1 | – | KSN/Slc nude mice, SAS xenograft | dose not given, day 2, 48 h | – | tumour volume | 99.7 mm3 and 110 mm3 and 159 mm3 and 101 mm3 and 51.5 mm3 |
| COc1ccccc1C1CCN(CCC(=O)Nc2ccc(C)c(C)c2)CC1 | locomotor activity in dark | Danio rerio larvae, 7 dpf, well of 10 larvae | 10 µM, minute 5, dark | – | third-quartile larval motion | 1.7 ± 0.5 pixels/frame |
| Oc1cc2c(cc1O)C(c1ccc3[nH]ccc3c1)NCC2 (stereo not drawn) | DPPH scavenging, absorbance | – | 30 min, dark | – | IC50 | 21.1 µM |
| O=C([O-])c1cccc(CN2Cc3cccc(n3)CN(Cc3cccc(C(=O)O)n3)Cc3cccc(n3)C2)n1.[Mn+2].[O-][Cl+3]([O-])([O-])[O-] | HPLC | water | 25 °C, Mn complex dissociation, added: 25 equiv Zn2+ | – | transmetallation rate constant | 0.0001 s⁻¹ |
| CC(=O)[O-].O.O.[O-]c1ccc(Br)cc1C=NCCN1CCOCC1.[Zn+2] | DPPH radical scavenging | – | 200 µM | – | inhibition | 52.4% |
| CC(CCC(=O)NCc1ccc(C(=O)NO)cc1)C1CCC2C3C(O)CC4CC(O)CCC4(C)C3CCC12C (stereo not drawn) | measured: TUDCA | PCK rat (Pkhd1 mutant), peripheral blood | oral gavage, dose not given, 5 months | relative to: total bile acids | relative abundance | 4.77% |
| Cc1cc(NC(=O)CCN2CCCCC2)ccc1Br | locomotor activity in dark | Danio rerio larvae, 7 dpf, well of 10 larvae | 10 µM, minute 7, dark | – | third-quartile larval motion | 1.7 ± 0.6 pixels/frame |
| Cc1ccc(S(=O)(=O)NN)cc1 | hydrazine ligation kinetics, absorbance | – | concentration not given, 30 s, added: 2-formylphenylboronic acid | – | normalised absorbance | 0.847 |
| COc1c(Cl)cccc1Nc1c(-c2ccncc2C#C[C@@]2(C)CCCN2C(=O)/C=C/CN(C)C)[nH]c2c1C(=O)NCC2 | – | female BALB/c nude mouse, sample A PDX | 25 mg/kg once daily, 28 days, EGFR ASV | – | tumour regression | 88.3% |
| NNC(=O)Cc1ccccc1 | hydrazine ligation kinetics, absorbance | – | concentration not given, 25 s, added: 2-formylphenylboronic acid | – | normalised absorbance | 0.612 |
| COc1ccccc1-c1ccncc1C(=O)Nc1nnc(OCc2ccc(Cl)cc2)s1 | – | Brca1 Δ11/Δ11 Polq-/- MEFs, mouse | 20 µM | – | colony survival | 14.9% and 12.1% and 6% |
| CN1CCC[C@]1(C)/C=C/S(=O)(=O)NC(=O)Nc1c2c(cc3c1CCC3)CCC2 | – | human, whole blood ex vivo | 100 mg twice daily, day 1, 6 h, multiple ascending dose, added: LPS and ATP | – | IL-18 inhibition | 92.9% |

A few entries again:
| Compound | assay | test system | conditions | scale | quantity | value |
| --- | --- | --- | --- | --- | --- | --- |
| Cc1ccc(S(=O)(=O)NN)cc1 | hydrazine ligation kinetics, absorbance | – | concentration not given, 30 s, added: 2-formylphenylboronic acid | – | normalised absorbance | 0.847 |
| N#Cc1ccc(-c2cnc(C(=O)CCCCCCc3ccccc3)o2)nc1 | measured: AEA, OEA, PEA | mouse, brain and liver | i.p., 30 mg/kg, 1 and 3 h | – | lipid amide levels | increased |
| COc1ccccc1-c1ccncc1C(=O)Nc1nnc(OCc2ccc(Cl)cc2)s1 | – | Brca1 Δ11/Δ11 Polq-/- MEFs, mouse | 20 µM | – | colony survival | 14.9% and 12.1% and 6% |
| CCOC(=O)NCc1ccc(O[C@@H]2O[C@@H](C)[C@H](O)[C@@H](O)[C@H]2O)cc1 | ABTS radical | – | 300 µg/mL | – | radical scavenging | 30.6 ± 0.91% |
